# Results pooled from the literature.
# Each line is one published result; not all experiments were run side by side. ± marks the error that the study gave.
# T1: RNA aptamer A9G; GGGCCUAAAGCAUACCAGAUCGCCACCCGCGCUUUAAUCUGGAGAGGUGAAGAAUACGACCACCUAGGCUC
# T2: thiM TPP riboswitch transcriptional intermediate mimic, 2-aminopurine at 62 (Escherichia coli); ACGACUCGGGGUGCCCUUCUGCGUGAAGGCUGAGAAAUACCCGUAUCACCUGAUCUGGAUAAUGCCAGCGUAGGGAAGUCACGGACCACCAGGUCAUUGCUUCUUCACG
# T3: G-quadruplex DNA, G-quadruplex (Homo sapiens); CGGGCCGCGGGAGGAGGGA
Compound,target,assay,system,conditions,how to read,endpoint,value
O=C1CC[C@H](N2Cc3cc(-c4cnn5ccc(Nc6ccc7c(c6)OCO7)nc45)ccc3C2=O)C(=O)N1,"Cereblon/Casein kinase I alpha (CSNK1A1/CRBN, Homo sapiens, UniProt P48729+Q96SW2)","protein level, degrader, luciferase",MOLT-4,,,Dmax,0%
COCCO[C@H]1CC[C@H](Nc2cc(=O)n(C)c3ccc(-c4cncs4)cc23)CC1,"ADP-ribosyl cyclase/cyclic ADP-ribose hydrolase 1 (CD38, Homo sapiens, UniProt P28907)","hydrolase activity, fluorometric",,"50 nM, added: ε-NAD+ substrate",reference: untreated,remaining activity,60.3 ± 1.8%
CN(C)[C@@H]1C(=O)C(C(N)=O)=C(O)[C@@]2(O)C(=O)C3=C(O)c4c(O)cccc4[C@@](C)(O)[C@H]3C[C@@H]12,"T1, RNA aptamer A9G",ITC,,"pH 7.5, 25 °C, MgCl2 10 mM",,Kd,402 nM
O=C(Nc1ccc(C(=O)Nc2ccc(C(=O)Nc3ccc(S(=O)(=O)O)c4cc(S(=O)(=O)O)cc(S(=O)(=O)O)c34)cc2)cc1)Nc1ccc(C(=O)Nc2ccc(C(=O)Nc3ccc(S(=O)(=O)O)c4cc(S(=O)(=O)O)cc(S(=O)(=O)O)c34)cc2)cc1,"Neutrophil elastase (ELANE, Homo sapiens, UniProt P08246)","enzyme activity, inhibitor, chromogenic substrate hydrolysis",,"pH 7.4, 37 °C, 100 mM NaCl, added: substrate S-1384",,maximal inhibition,105.4 ± 1%
CCCCCCCC(=O)Nc1ccc(OC)nc1C,"Liver carboxylesterase 1 (CES1, Homo sapiens, UniProt P23141)","enzyme activity, substrate",,"pH 8, 37 °C, substrate 3.13 to 100 µM",,apparent Vmax,380 pmol/min/µg
[3H]C([3H])([3H])c1cnccc1CN1C[C@@H](c2cc(F)c(F)c(F)c2)CC1=O,"Synaptic vesicle glycoprotein 2A (SV2A, Homo sapiens, UniProt Q7L0J3)",radioligand binding,"human Alzheimer disease, frontal cortex",,reference: P1 over P2 fraction,specific binding ratio,~3.7 fold
CC(=O)NCCN(CC(=O)NCCN(CC(=O)NCCN(CC(=O)NCCC(N)=O)C(=O)C[C@@H](N)CCCNC(=N)N)C(=O)C[C@@H](N)Cc1ccccc1)C(=O)C[C@@H](N)Cc1ccccc1,HIV-1 TAR RNA,,,25 °C,,binding free energy ΔG°,-9.01 ± 0.287 kcal/mol
Cc1ncc(C[n+]2csc(CCOP(=O)(O)OP(=O)(O)O)c2C)c(N)n1,"T2, thiM TPP riboswitch transcriptional intermediate mimic, 2-aminopurine at 62 (Escherichia coli)",2-aminopurine fluorescence,,"pH 7.5, 25 °C, KCl 100 mM, added: TPP 3 µM",,binding,binds weakly
CCOc1ccccc1-c1nnc2n1N=C(c1ccc(NC3CCCC3)cc1)CS2,"C-X-C chemokine receptor type 4 (CXCR4, Homo sapiens, UniProt P61073)","β-arrestin recruitment, agonist",U2OS,,,Emax,31%
CSCC[C@H](NC(=O)[C@H](CC(C)C)NC(=O)[C@H](CCC(N)=O)NC(=O)[C@H](Cc1c[nH]cn1)NC(=O)[C@H](CCC(=O)O)NC(=O)[C@H](CO)NC(=O)[C@@H](NC(=O)[C@@H](N)CO)C(C)C)C(=O)N[C@@H](Cc1c[nH]cn1)C(=O)N[C@@H](CC(N)=O)C(=O)N[C@@H](CC(C)C)C(=O)NCC(=O)N[C@@H](CCCCN)C(=O)N[C@@H](Cc1c[nH]cn1)C(=O)N[C@@H](CC(C)C)C(=O)N[C@@H](CC(N)=O)C(=O)N[C@@H](CO)C(=O)N[C@@H](CCSC)C(=O)N[C@@H](CCC(=O)O)C(=O)N[C@@H](CCCNC(=N)N)C(=O)N[C@H](C(=O)N[C@@H](CCC(=O)O)C(=O)N[C@@H](Cc1c[nH]c2ccccc12)C(=O)N[C@@H](CC(C)C)C(=O)N[C@@H](CCCNC(=N)N)C(=O)N[C@@H](CCCCN)C(=O)N[C@@H](CCCCN)C(=O)N[C@@H](CC(C)C)C(=O)N[C@@H](CCC(N)=O)C(=O)N[C@@H](CC(=O)O)C(=O)N[C@H](C(=O)N[C@@H](Cc1c[nH]cn1)C(=O)N[C@@H](CC(N)=O)C(=O)N[C@@H](Cc1ccccc1)C(=O)N[C@@H](CCCCNC(=O)c1ccc2c(c1)C1(OC2=O)c2ccc(N(C)C)cc2Oc2cc(N(C)C)ccc21)C(N)=O)C(C)C)C(C)C,"Parathyroid hormone/parathyroid hormone-related peptide receptor (PTH1R, Homo sapiens, UniProt Q03431)","binding, NanoBRET",,"pH 6.5, MES buffer",,koff,0.071 ± 0.04 s⁻¹
NC(=O)C1CCNC(=O)C(Cc2ccc([N+](=O)[O-])cc2)NC(=O)C(Cc2ccco2)NC(=O)C(CC2CC2)NC(=O)C=CC(=O)N1 (centres unmarked),"RAC-gamma serine/threonine-protein kinase (AKT3, Homo sapiens, UniProt Q9Y243)",DNA-templated library selection,,one selection round,,enrichment factor,1.5
CC(=O)N[C@@H](CC(=O)O)C(=O)N[C@H]1CSSC[C@@H](C(=O)N[C@H](C(=O)N[C@@H](Cc2ccccc2)C(=O)N[C@@H](Cc2c[nH]cn2)C(N)=O)[C@@H](C)O)NC(=O)[C@H](Cc2c[nH]c3ccccc23)NC(=O)[C@H](C(C)C)NC(=O)[C@H](CC(C)C)NC(=O)[C@H](CCC(=O)O)NC(=O)CNC(=O)[C@H](CC(C)C)NC(=O)[C@H](Cc2c[nH]cn2)NC(=O)[C@H](Cc2ccc(O)cc2)NC(=O)[C@H](C)NC1=O,"Immunoglobulin heavy constant gamma 1 (IGHG1, Homo sapiens, UniProt P01857)","binding, ITC",,"25 °C, added: Herceptin",,–TΔS,3.9 ± 0.3 kcal/mol
OC[C@@H]1[C@@H](O)[C@H](O)[C@@H](O)CN1CCCCCOCC1CCOC1 (some centres unmarked),"Beta-glucosidase (GBA2, Homo sapiens, UniProt Q9HCG7)","enzyme activity, inhibitor, 4-MU-β-D-glucopyranoside",HEK293T cell homogenate,,reference: GCS over GBA2,selectivity ratio,~1000 fold
Cc1cc(O)cc2c1C(=O)c1c(cc3oc(=O)cc(C)c3c1O)C2=O,mushroom tyrosinase,enzyme activity,,"50 µg/mL, added: L-DOPA",,inhibition,48.19 ± 0.28%
CNc1ccccc1C(=O)O[C@H]1C[C@H](n2cnc3c(N)ncnc32)O[C@@H]1COP(=O)(O)OP(=O)(O)O,"Unconventional myosin-Va (Gallus gallus, UniProt Q02440, D297C/G292C/I296C/S293C/V295G)",stopped-flow FRET,,"25 °C, added: 4 mM EDTA",reference: with Mg,association rate constant,> 2 fold
COc1ccc2c(c1)c(CC(=O)[O-])c(C)n2C(=O)c1ccc(Cl)cc1.COc1ccc2c(c1)c(CC(=O)[O-])c(C)n2C(=O)c1ccc(Cl)cc1.[Co+2].c1c[nH]cn1.c1c[nH]cn1,calf thymus DNA,cyclic voltammetry,DMSO/buffer,Co(II)/Co(I) couple,reference: without DNA,cathodic peak potential shift,-20 mV
Oc1c(C(Nc2nc3ccccc3s2)c2cccc(OCc3ccccc3)c2)ccc2cccnc12 (centres unmarked),"Genome polyprotein, NS2B-NS3 protease (Dengue virus type 2, UniProt P14340)","substrate, tetrapeptide cleavage",,"5 µM, 37 °C, added: 40 µM ZnCl2",,kcat,0.101 ± 0.0043 s⁻¹
Cc1sc2nc[nH]c(=O)c2c1C,"Cyclin-G-associated kinase (GAK, Homo sapiens, UniProt O14976)",weak affinity chromatography,,,,ligand efficiency,0.6
O=C1NCCN=C1CC(=O)c1ccccc1,"Mitogen-activated protein kinase 14 (MAPK14, Homo sapiens, UniProt Q16539)",enzyme activity,,,,ligand efficiency,0.22
CNc1nc2c(c(=O)[nH]1)[n+](C)cn2[C@@H]1O[C@H](COP(=O)(O)OP(=O)(O)OP(=O)(O)OC[C@H]2O[C@@H](n3cnc4c(=O)[nH]c(N)nc43)[C@H](O)[C@@H]2O)[C@@H](O)[C@H]1O,"m7GpppX diphosphatase (dcs-1, Caenorhabditis elegans, UniProt G5EFS4)","decapping, substrate, HPLC",,concentration not given,,initial hydrolysis rate,3.73 ± 0.28 µM/min
N=C(N)NCCC[C@H](NC(=O)[C@H](Cc1ccccc1)NC(=O)[C@@H](N)CO)C(=O)N[C@@H](CC(N)=O)C(N)=O,"Neuropeptide S receptor (NPSR1, Homo sapiens, UniProt Q6W5P4, N107I)","calcium mobilization, agonist",CHO-Gα16 cells,concentration not given,"reference: full-length NPS over compound, fold less potent",potency fold change,4 fold
CC(=O)NCCN(CCC(=O)NCCN(CCC(=O)NCCN(CCC(=O)NCCC(N)=O)C(=O)[C@@H](N)CCCNC(=N)N)C(=O)[C@@H](N)CCCNC(=N)N)C(=O)[C@@H](N)Cc1ccccc1,HIV-1 TAR RNA,,,,,non-electrostatic TΔS°,-4.57 ± 0.311 kcal/mol
O=C(O)C1OC(Oc2cccc(-c3nc(N4CCOCC4)c4oc5ncccc5c4n3)c2)C(O)C(O)C1O (centres unmarked),"UDP-glucuronosyltransferase 1A9 (UGT1A9, Homo sapiens, UniProt O60656)","glucuronidation, substrate, recombinant enzyme",,,,substrate inhibition constant,86.8 ± 24.3 µM
CCC1=C(C)c2cc3[nH]c(cc4nc(cc5[nH]c(cc1n2)c(C)c5CCC(=O)NCCOCCOCC(=O)NCCN(CC(=O)N[C@H](CCCCN)C(=O)N[C@H](CCCCN)C(N)=O)C(=O)Cn1cnc2c(=O)[nH]c(N)nc21)C(CCC(=O)O)=C4C)c(C)c3CC,"T3, G-quadruplex DNA, G-quadruplex (Homo sapiens)",FRET melting,,"pH 7.4, KCl 50 mM",,binding,binds weakly
CC(=O)NCCN(CC(=O)NCCN(CC(=O)NCCN(CC(=O)NCCC(N)=O)C(=O)[C@@H](N)CCCNC(=N)N)C(=O)[C@@H](N)CCCNC(=N)N)C(=O)[C@@H](N)Cc1ccccc1,HIV-1 TAR RNA,,,concentration not given,,heat capacity change ΔCp,-2.61 ± 0.28 kJ/mol/K
O=C(O)[C@H]1O[C@@H](O[C@@H]2c3cc4ccc5cccc6c7ccccc7c(c3C=C[C@H]2O)c4c56)[C@H](O)[C@@H](O)[C@@H]1O,"UDP-glucuronosyltransferase 1A7 (UGT1A7, Homo sapiens, UniProt Q9HAW7)","glucuronidation, substrate",UGT-expressing HEK293 homogenate,normalized to UGT expression,,kcat,8.33e-05 ± 1.67e-05 s⁻¹
